# Assay results of several laboratories.
# Each line is one published result; not all experiments were run side by side. Numbers after ± are the reported error.
SMILES,cell line,assay,setting,how to read,viability
C=C(C(=O)O)[C@@H]1CC[C@@]2(C)CCC(=O)C(C)=C2[C@H]1O,RBL-2H3,"cell growth or viability, MTT",100 µM,,> 90%
CC(C)C1=C[C@@]23CC[C@@H]4[C@](C)(CCC[C@@]4(C)C(=O)OCC#CCN4CCOCC4)[C@H]2C[C@@H]1[C@H]1C(=O)CCC(=O)[C@H]13,BHK-21-hACE2,,"20.0 µM, 48 (unit not given)",,< 50%
O=C(CN1CCN(c2cc3c(cc2F)c(=O)c(C(=O)O)cn3C2CC2)CC1)Nc1ccc(Cl)cc1,Hec50co GOF p53,MTS,"10 µM, 72 h",,101.1 ± 1%
CCCCCCCCCCCCCCCC(=O)N[C@@H](CCCCN)C(=O)N1CCC[C@H]1C(=O)N[C@H](C(N)=O)C(C)C,murine cells,MTT,"20 µM, 2 h, medium without FBS",reference: untreated,≥ 85.5%
CCN(CC)CC#CCOC(=O)[C@]1(C)CCC[C@]2(C)[C@H]3C[C@H]4C(C(C)C)=C[C@]3(CC[C@H]21)[C@@H]1C(=O)CCC(=O)[C@@H]14,BHK-21-hACE2,,"20.0 µM, 48 (unit not given)",,112%
C=C(C(=O)OC)[C@@H]1CC[C@@]2(C)CCC(=O)C(C)=C2C1,RBL-2H3,"cell growth or viability, MTT",100 µM,,> 90%
CC1(C)C=Cc2c(cc(O)c3c(=O)cc(-c4ccccc4)oc23)O1,retinoic acid-differentiated SH-SY5Y,MTT,"10 µM, 24 h",reference: control,92.6 ± 1.2%
CC(C)[C@H](NC(=O)[C@@H](NC(=O)[C@H](CCCNC(=N)N)NC(=O)[C@H](CCCNC(=N)N)NC(=O)[C@H](CCCNC(=N)N)NC(=O)[C@H](CCC(N)=O)NC(=O)[C@H](CCCNC(=N)N)NC(=O)[C@H](CCCNC(=N)N)NC(=O)[C@H](CCCCN)NC(=O)[C@H](CCCCN)NC(=O)[C@H](CCCNC(=N)N)NC(=O)CN)[C@@H](C)O)C(=O)N[C@H](C(=O)N[C@@H](CO)C(=O)N1CCC[C@H]1C(=O)O)[C@@H](C)O,BEAS-2B,MTT,"concentration not given, 30 min, outcome no effect, together with: Der f 2",,no effect
N[C@H](CC[As](O)O)C(=O)O,MDA-MB-231,,"10 µM, 72 (unit not given)",,~64%
CC(C)C1=C[C@@]23CC[C@@H]4[C@](C)(CCC[C@@]4(C)C(=O)OCC#CCN4CCCC4)[C@H]2C[C@@H]1[C@H]1C(=O)OC(=O)[C@H]13,BHK-21-hACE2,,"20.0 µM, 48 (unit not given)",,< 50%
COc1cc2c(cc1OC)C(=O)C(=Cc1ccc(N3CC[N+](C)(C)CC3)cc1)C2,PC-12,"cell viability, MTT","concentration not given, 48 h",,no effect
COc1ccc(C(=O)CCl)cc1,HMC3 GRN luciferase reporter clone,ATP-based,"11 µM, 72 h, 10% FBS",,> 75%
COC(=O)c1c(C)[nH]c2c3c(c(O)c(CN4CCOCC4)c12)[C@H]1C[C@@H]2[C@@]4(C)CCC[C@@](C)(C(=O)OC)[C@@H]4CC[C@@]32C=C1C(C)C,BHK-21-hACE2,,"20.0 µM, 48 (unit not given)",,116%
CSCC[C@H](N)C(=O)N[C@@H](CCC(=O)O)C(=O)N[C@H](C(=O)NCC(=O)N[C@@H](Cc1c[nH]c2ccccc12)C(=O)N[C@@H](Cc1ccc(O)cc1)C(=O)N[C@@H](CCCNC(N)=O)C(=O)N[C@@H](CO)C(=O)N1CCC[C@H]1C(=O)N[C@@H](Cc1ccccc1)C(=O)N[C@@H](CO)C(=O)N[C@@H](CCCNC(N)=O)C(=O)N[C@H](C(=O)N[C@H](C(=O)N[C@@H](Cc1c[nH]cn1)C(=O)N[C@@H](CC(C)C)C(=O)N[C@@H](Cc1ccc(O)cc1)C(=O)N[C@@H](CCCNC(=N)N)C(=O)N[C@@H](CC(N)=O)C(=O)NCC(=O)N[C@@H](CCCCN)C(N)=O)C(C)C)C(C)C)C(C)C,mouse bone marrow-derived dendritic cells,MTT,up to 3 µM,reference: untreated,70%
Cc1cc(O)c2c(C(=O)[O-])[n+]3n(c2c1)CCCC3,HepG2,"cell growth or viability, CCK-8","40 µM, 24 h",,73.8%
CC(C)C[C@H](NC(=O)CNC(=O)[C@H](C)NC(=O)[C@H](CCCNC(=N)N)NC(=O)[C@H](CO)NC(=O)[C@H](CO)NC(=O)[C@H](CCCNC(=N)N)NC(=O)[C@@H](N)[C@@H](C)O)C(=O)N[C@@H](CCC(N)=O)C(=O)N[C@@H](Cc1c[nH]c2ccccc12)C(=O)N1CCC[C@H]1C(=O)N[C@H](C(=O)NCC(=O)N[C@@H](CCCNC(=N)N)C(=O)N[C@H](C(=O)N[C@@H](Cc1cnc[nH]1)C(=O)N[C@@H](CCCNC(=N)N)C(=O)N[C@@H](CC(C)C)C(=O)N[C@@H](CC(C)C)C(=O)N[C@@H](CCCNC(=N)N)C(=O)N[C@@H](CCCCN)C(=O)O)C(C)C)C(C)C,WI-38,MTT,"1 µM, 48 h",reference: water-treated,91 ± 6%
CC(C)C1=CC2=CC[C@@H]3[C@](C)(CCC[C@@]3(C)C(=O)OCC#CCN3CCOCC3)[C@H]2CC1,BHK-21-hACE2,,"20.0 µM, 48 (unit not given)",,121%
C[C@H](c1cccc2ccccc12)N1CCC(C(=O)NCc2cc(F)cc(NC(=O)CN(C)C)c2)CC1,hACE2-HeLa,CellTiter-Glo,"10 µM, 72 h",reference: untreated,~60%
COC(=O)[C@]1(C)CCC[C@]2(C)[C@H]3C[C@H]4C(C(C)C)=C[C@]3(CC[C@H]21)[C@H]1[C@@H]4[C@@H](OCC#CCN2CCCC2)CC[C@@H]1O,BHK-21-hACE2,,"20.0 µM, 48 (unit not given)",,114%
CC1=C2[C@@H](O)[C@H](C(=O)O)CC[C@@]2(C)CCC1=O,RBL-2H3,"cell growth or viability, MTT",100 µM,,> 90%
CC(C)C[C@H](NC(=O)[C@H](CC(N)=O)NC(=O)[C@H](CCCNC(=N)N)NC(=O)[C@@H](N)CS)C(=O)O,B16-F1,MTT,"50 to 200 µM, 48 h",,not toxic

# A few entries again:
SMILES,cell line,assay,setting,how to read,viability
C=C(C(=O)O)[C@@H]1CC[C@@]2(C)CCC(=O)C(C)=C2[C@H]1O,RBL-2H3,"cell growth or viability, MTT",100 µM,,> 90%
COC(=O)[C@]1(C)CCC[C@]2(C)[C@H]3C[C@H]4C(C(C)C)=C[C@]3(CC[C@H]21)[C@H]1[C@@H]4[C@@H](OCC#CCN2CCCC2)CC[C@@H]1O,BHK-21-hACE2,,"20.0 µM, 48 (unit not given)",,114%
CC1(C)C=Cc2c(cc(O)c3c(=O)cc(-c4ccccc4)oc23)O1,retinoic acid-differentiated SH-SY5Y,MTT,"10 µM, 24 h",reference: control,92.6 ± 1.2%
